Measured values gathered from unrelated publications.
A part holds a random share of what one study measured.

Block 1
Target: Max-binding protein MNT, bHLH-zipper, MAX partner unstated (MNT, Homo sapiens, UniProt Q99583, residues 220-300)
Method: protein-binding microarray
Molecule type: double-stranded DNA, one strand shown
Medium: in vitro
Tested at: not given
Setting: k-mer, scored over probes, only values ≥0.25
Direction: higher = stronger binding
Endpoint: E-score
Target sequence (chain): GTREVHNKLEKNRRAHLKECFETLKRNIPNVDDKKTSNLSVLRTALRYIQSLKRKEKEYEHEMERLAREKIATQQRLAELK
Sequence = CACCCGCC; result = 0.309
Sequence = ATGGTGTG; result = 0.263
Sequence = AAAACGTG; result = 0.443
Sequence = CCTGCACG; result = 0.355
Sequence = CACGTGGC; result = 0.498
Sequence = ACGTGCTC; result = 0.457
Sequence = ATTGCGTG; result = 0.268
Sequence = TCACCCCA; result = 0.318
Sequence = ACGCACGT; result = 0.441
Sequence = CATAGCAC; result = 0.291
Sequence = ACGCCCAC; result = 0.303
Sequence = CAAGCGTG; result = 0.391
Sequence = GCCACACC; result = 0.277
Sequence = ACGCCATG; result = 0.381
Sequence = TGCATGCA; result = 0.368
Sequence = AAACGCAT; result = 0.258
Sequence = CATGGGCG; result = 0.275
Sequence = ACGCGCGT; result = 0.398
Sequence = GTGTCCCA; result = 0.292
Sequence = CACGAGGG; result = 0.459
Sequence = CACGCATA; result = 0.318
Sequence = ATGTGACG; result = 0.302
Sequence = GCACGTCA; result = 0.266
Sequence = GCATGCCA; result = 0.355
Sequence = GCCCACGA; result = 0.286

Block 2
Target: Prothrombin, mature alpha-thrombin (F2, Homo sapiens, UniProt P00734)
Method: aptamer microarray, sandwich
Molecule type: DNA with 2'F-ANA
Medium: in vitro
Tested at: 200 nM
Setting: whole 15-mer aptamer, many near background
With: Cy3 exosite-II aptamer, 400 nM
Direction: higher = stronger binding
Endpoint: mean fluorescence intensity
Sequence: GGTTGGTGTGGTTGG
Modification = 2'F-ANA at 2 3 8 9 12 13 14; result = 461 a.u.
Modification = 2'F-ANA at 1 2 4 5 6 11 13 14; result = 44.4 a.u.
Modification = 2'F-ANA at 5 6 7 8 9 10 11 13 14; result = 59.5 a.u.
Modification = 2'F-ANA at 1 3 4 6 7 9 12 13; result = 215 a.u.
Modification = 2'F-ANA at 1 3 5 6 7 9 11 13 15; result = 49.6 a.u.
Modification = 2'F-ANA at 1 4 5 7 8 11 12 13 15; result = 81.6 a.u.
Modification = 2'F-ANA at 1 6 7 12 13 14 15; result = 80.9 a.u.
Modification = 2'F-ANA at 3 4 5 6 9 12 13 14 15; result = 51.1 a.u.
Modification = 2'F-ANA at 1 2 3 5 8 9 12 13 14; result = 66.2 a.u.
Modification = 2'F-ANA at 1 2 4 10 13 15; result = 45.6 a.u.
Modification = 2'F-ANA at 2 3 4 6 7 9 10 11 12 13; result = 193 a.u.
Modification = 2'F-ANA at 2 3 4 11 13 15; result = 449 a.u.
Modification = 2'F-ANA at 3 4 5 7 9 10 12 15; result = 53.8 a.u.
Modification = 2'F-ANA at 1 4 5 6 7 8 12 15; result = 134 a.u.
Modification = 2'F-ANA at 1 2 3 9 15; result = 244 a.u.
Modification = 2'F-ANA at 1 2 4 5 6 8 9 10 11 14; result = 234 a.u.

Block 3
Target: Sal-like protein 4, full length isoform A (SALL4, Homo sapiens, UniProt Q9UJQ4, residues 1-1053)
UniProt Q9UJQ4, sequence (whole entry, looked up): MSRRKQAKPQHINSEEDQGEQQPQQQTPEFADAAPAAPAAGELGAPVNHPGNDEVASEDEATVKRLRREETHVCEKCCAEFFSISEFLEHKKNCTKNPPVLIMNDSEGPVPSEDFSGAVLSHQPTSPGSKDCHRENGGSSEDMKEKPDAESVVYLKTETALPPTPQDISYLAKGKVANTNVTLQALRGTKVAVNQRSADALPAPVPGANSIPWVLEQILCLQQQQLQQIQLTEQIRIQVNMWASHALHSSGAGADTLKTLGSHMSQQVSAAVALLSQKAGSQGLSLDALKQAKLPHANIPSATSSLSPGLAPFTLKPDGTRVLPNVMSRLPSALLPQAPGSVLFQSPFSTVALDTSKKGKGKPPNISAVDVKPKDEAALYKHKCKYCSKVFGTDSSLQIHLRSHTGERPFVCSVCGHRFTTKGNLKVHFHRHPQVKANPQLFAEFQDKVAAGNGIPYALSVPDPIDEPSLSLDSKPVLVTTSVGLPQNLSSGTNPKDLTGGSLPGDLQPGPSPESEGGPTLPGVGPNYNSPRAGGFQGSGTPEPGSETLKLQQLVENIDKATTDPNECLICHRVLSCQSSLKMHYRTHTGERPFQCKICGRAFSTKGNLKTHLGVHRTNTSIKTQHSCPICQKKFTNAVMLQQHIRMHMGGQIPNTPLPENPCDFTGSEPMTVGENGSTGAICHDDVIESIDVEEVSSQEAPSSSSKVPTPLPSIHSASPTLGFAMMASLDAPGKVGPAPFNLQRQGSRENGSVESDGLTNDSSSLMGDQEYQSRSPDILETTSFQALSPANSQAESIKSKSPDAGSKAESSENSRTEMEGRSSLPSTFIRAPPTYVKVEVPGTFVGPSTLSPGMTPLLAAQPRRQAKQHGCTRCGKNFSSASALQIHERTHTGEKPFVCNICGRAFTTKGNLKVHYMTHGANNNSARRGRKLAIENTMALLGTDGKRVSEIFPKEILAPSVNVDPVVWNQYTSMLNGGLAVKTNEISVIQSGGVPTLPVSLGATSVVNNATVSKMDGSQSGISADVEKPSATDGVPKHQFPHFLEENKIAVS
Method: universal PBM
Molecule type: double-stranded DNA, one strand shown
Medium: in vitro
Tested at: 600 nM
Setting: 8-mer, flanks averaged, mean of replicates
Direction: higher = stronger binding
Endpoint: E-score
Sequence = CGGACGGC; result = -0.307
Sequence = AAAGCGCT; result = 0.159
Sequence = GGTGGGCA; result = -0.12
Sequence = AGCGCATA; result = 0.185
Sequence = CCCAGCAC; result = -0.25
Sequence = AAAAGCCG; result = -0.214
Sequence = AATCGCTA; result = 0.0726
Sequence = GCGAGTAA; result = 0.0689
Sequence = GCACGGAA; result = -0.148
Sequence = GCCCAGCC; result = -0.346
Sequence = CGGCAGTA; result = -0.217
Sequence = CAATTGGA; result = -0.0535
Sequence = AGCTGAGC; result = -0.329
Sequence = CTCCACAC; result = -0.107
Sequence = CGCGGAAC; result = -0.18
Sequence = AGAGGGGC; result = -0.325
Sequence = CTTACGGA; result = -0.101

Block 4
Target: Histone acetyltransferase KAT6A, winged helix 2, GST fusion (KAT6A, Homo sapiens, UniProt Q92794, residues 85-181)
Method: protein binding microarray
Molecule type: double-stranded DNA, one strand shown
Medium: in vitro
Tested at: not given
Setting: 8-mer, flanks averaged, mean of 2 arrays, mostly near background
Reference: not given
Direction: higher = stronger binding
Endpoint: E-score
Construct (chain): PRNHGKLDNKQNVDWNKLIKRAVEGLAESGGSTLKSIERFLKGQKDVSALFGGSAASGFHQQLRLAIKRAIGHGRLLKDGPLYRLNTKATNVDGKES
Sequence = GTAAATAA; result = -0.0628
Sequence = GAACTTAA; result = -0.0842
Sequence = CACAGAAA; result = 0.165
Sequence = CGTCAAAG; result = 0.0219
Sequence = CTGCTGCC; result = -0.0303
Sequence = CTCTTTAA; result = 0.0147
Sequence = CACAGAGC; result = 0.1
Sequence = ACCTAACC; result = 0.0545
Sequence = GAGTCCCA; result = -0.0277
Sequence = TGATTCAA; result = -0.00136
Sequence = CACCTCGC; result = 0.0389
Sequence = CGAACTAC; result = -0.0583
Sequence = GGGAACCA; result = -0.115
Sequence = CGCTAAGC; result = 0.143
Sequence = CTGGGGTC; result = -0.0286
Sequence = GGAACCAC; result = -0.0253

Block 5
Target: Interferon regulatory factor 3, full length, phosphomimetic (IRF3, Homo sapiens, UniProt Q14653, residues 1-427, S386D/S396D/S398D/S402D/T404D/S405D)
UniProt Q14653, sequence (whole entry, unmodified, looked up): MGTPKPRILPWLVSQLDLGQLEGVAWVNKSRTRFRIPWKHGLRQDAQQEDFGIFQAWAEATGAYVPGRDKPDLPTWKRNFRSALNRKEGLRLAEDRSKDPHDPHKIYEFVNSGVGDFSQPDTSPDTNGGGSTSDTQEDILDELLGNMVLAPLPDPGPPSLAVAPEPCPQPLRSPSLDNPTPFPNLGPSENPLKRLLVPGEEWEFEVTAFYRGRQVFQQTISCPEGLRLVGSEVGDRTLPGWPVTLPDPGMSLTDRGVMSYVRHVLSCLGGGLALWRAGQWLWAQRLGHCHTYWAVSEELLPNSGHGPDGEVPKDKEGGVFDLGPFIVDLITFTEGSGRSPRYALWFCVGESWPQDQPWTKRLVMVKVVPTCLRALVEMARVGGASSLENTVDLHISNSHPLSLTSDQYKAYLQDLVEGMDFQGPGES
Method: protein-binding microarray
Molecule type: double-stranded DNA, one strand shown
Medium: in vitro
Tested at: 2540 nM top
Setting: 60-bp whole probe
With: salmon DNA 0.4 mg/ml
Reference: random background probes
Direction: higher = stronger binding
Endpoint: fitted relative affinity
Shared flanks, not repeated: GCCTAGCAC … GTCTTGATTCGCTTGACGCTGCTG
Sequence = TTACGTTTCCTACTGCTTTAGTGCTAG; result = 3.9 z-score
Sequence = GACGATCTGAGTATCGAGACGTGCTAG; result = 0.212 z-score
Sequence = TTTCTTTTCCATTTTGTGTTGTGCTAG; result = 5.65 z-score
Sequence = TTCTACTTCTGTTTTTGCTTGTGCTAG; result = 1.99 z-score
Sequence = GACGGTGCCGGTTTCGGGACGTGCTAG; result = 3.33 z-score
Sequence = TCAAGTCCCTATCTCCTACTGTGCTAG; result = 0.971 z-score
Sequence = TTAGGTTTCGGTTCCGGTTAGTGCTAG; result = 10.4 z-score
Sequence = TTAGGATTGGACACTGGGTTAGTGCTA; result = -0.53 z-score
Sequence = GACGGTTTAGGTTTCGGGACGTGCTAG; result = 3.34 z-score
Sequence = TGTCTTTTCATTTTCTTTAAGTGCTAG; result = 2.59 z-score
Sequence = ATAGGACTGGGGTTTCGGTTAGTGCTA; result = 2.61 z-score
Sequence = AGCATCTTCAAGACTCATAATGTGCTA; result = -0.502 z-score
Sequence = TCAGTCCTGGCTTTGACACTGTGCTAG; result = -0.458 z-score
Sequence = TTAGGACTGGACATTGGGTTAGTGCTA; result = -0.858 z-score
Sequence = TTAGGTTCCGGTTTCGATTAGTGCTAG; result = 6.86 z-score
Sequence = GACGATCTCAGTTTCGAGACGTGCTAG; result = 2.84 z-score
Sequence = TCAACTCTCTACATGTGACTGTGCTAG; result = 0.355 z-score
Sequence = TCATATATACACTTATGACTGTGCTAG; result = 0.823 z-score

Block 6
Target: RNA binding protein fox-1 homolog 2, RRM domain, GST-SBP tag (RBFOX2, Homo sapiens, UniProt O43251-10, residues 100-194)
Method: RNA Bind-n-Seq
Molecule type: RNA
Medium: in vitro
Tested at: 365 nM
Setting: natural RNA segment, single round, ends assumed
Reference: no-protein control
Direction: higher = stronger binding
Endpoint: RBNS enrichment (R)
Shared flanks, not repeated: GGGAGUUCUACAGUCCGACGAUC … UGGAAUUCUCGGGUGCCAA
Construct (chain): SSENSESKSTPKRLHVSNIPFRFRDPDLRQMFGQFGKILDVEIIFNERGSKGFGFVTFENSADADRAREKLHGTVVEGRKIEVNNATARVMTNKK
Sequence = ACUUCUGUGACUUUAGACAUGCUUUCUUGUAGUGCUUCUGCAAAGGGACUUUUUUUGAAUCCUCAGUGGCAUUUUUUUAAGGGAAAUAUGCAGAGUGGAUAUCUGGGUGG; result = 1.78
Sequence = AUGGCGAUGUUAACAAUUCUGCAUUUAGACAAGGUUUUGCAAAAGAUAUUGUGUUAGAAAAAUUUGAAACUAAAAGCUUCCCAAACAAAAUGGGAAACCUUACAGGACAU; result = 0.476
Sequence = UUUUUAGAUGGUAUGCUCUUGAUUGAAAUAUAUUCUCACUUUUACCAGGUUAAACAUUUGGAAUCUUAUAAUGUUACUUGCUUUUUGAUAGAUAAUAGUGAAAUAAAUUC; result = 0.514
Sequence = AAGAAAGUGCUCCUGAGAAGGCUCUUGCCAGAAGCCUGAUGUGAGUGUGUGGCACCUGUGAUGGCAGGGCUGUGAGCUGGGCUUCUGUCCUCCUCUGUGUCCCGGCAUGG; result = 4.98
Sequence = CAUUUCAUACAACAGAAACCAGAAAAGCAAUACUGUUUCCAUUUUAAGGAUAUGAUUAAUAUUAUUAAUAUAAUAAUGAUGAUGAUGAUGAUGAAAACUAAGGAUUUUUC; result = 0.698
Sequence = CACGAAAUUCCAGAAGAAAUGUGUGAUAAAAUCUGAAGUCAUGCUAGGCUUUUUUCUCUCUGCAACAUUUGUUCCUGGAAGAAAAGAGCAGAUGGAUUAUUUGUCGACCA; result = 0.384
Sequence = GCAGUGAUUCCUCUCAUAGCUCUGGGAUGGGGCUUGGUUAGGGUGUCGUGAUGGAAAUAAACCUGAACCUGUUGCCCAGUACCAGGGCCUCUGCUGUUUGGUCUUCACUC; result = 0.282
Sequence = UCUGAGUAAAGUGUCAGUUGCACAGCUCCGUCCUCUUCUGUCUUGCACUGUGGGUGGCACUAUUUAUUCCUGUGCGUCAUCUGGAAGCCUCACGGAUACAUCCAGCUAUG; result = 0.485
Sequence = UCUUGGCCACCUCCCCAUUCACAACUACUUUCUCGCUCCCAGAAGGUUGAUCAGAUAUUCUACAAUCACAGAGUAGCAAGGACGUUUGAGAUGGGUAUAUCAGUAAGAAG; result = 0.442
Sequence = UGCAGCUUGGAGAGCAAAGGCACUUCCUCCCACGACCUUACUGCAGUAACCAUACCGAUCAAAUUCCCAGGGACAUUCUGUCAUUGCAGUAGCUCAGACCUGUCUUUUCU; result = 0.407
Sequence = GGCAAGGUCAGAAAGAGACGGCGCUUCAGAGUUUCCUUUCCAGACACCCCUCCCCGCACUGUGAAGUUCCCCUGACCGCCCUCCUGGUUCACAAAGAGCAUUAAGAAAGC; result = 0.424
Sequence = AGGAUUGACAGUAACAAAUUCUCAAAGCUUGACUGGAGCUGGCUGCAGCUCAAAACAGUGCCUCCUGCCUCUUUAGAGCGGGGCUGCUCGGCAGCAGUGACUGCAGCCCC; result = 0.391

For quick reference, copied from above (block 2):
Modification = 2'F-ANA at 5 6 7 8 9 10 11 13 14; result = 59.5 a.u.
Modification = 2'F-ANA at 1 3 4 6 7 9 12 13; result = 215 a.u.
Modification = 2'F-ANA at 1 3 5 6 7 9 11 13 15; result = 49.6 a.u.
Modification = 2'F-ANA at 1 4 5 7 8 11 12 13 15; result = 81.6 a.u.
Modification = 2'F-ANA at 1 6 7 12 13 14 15; result = 80.9 a.u.
Modification = 2'F-ANA at 3 4 5 6 9 12 13 14 15; result = 51.1 a.u.
Modification = 2'F-ANA at 1 2 3 5 8 9 12 13 14; result = 66.2 a.u.
Modification = 2'F-ANA at 1 2 4 10 13 15; result = 45.6 a.u.
Modification = 2'F-ANA at 2 3 4 6 7 9 10 11 12 13; result = 193 a.u.
Modification = 2'F-ANA at 2 3 4 11 13 15; result = 449 a.u.
Modification = 2'F-ANA at 3 4 5 7 9 10 12 15; result = 53.8 a.u.
